Experimental data gathered from unrelated publications.
Each numbered part is a random draw from the data of one study; scales do not carry over between parts. Changes are numbered by the printed parent chain.

Series 1
Target: CCNF, cyclin fold, Cln2 fusion (human)
Method: yeast growth competition, sequencing
Sample: yeast
Notes: strong parent motif
Reference: not given
Reading: higher = stronger binding
Starting sequence: MICAL3 docking peptide (human); LQLRRQLSFSEDS; partner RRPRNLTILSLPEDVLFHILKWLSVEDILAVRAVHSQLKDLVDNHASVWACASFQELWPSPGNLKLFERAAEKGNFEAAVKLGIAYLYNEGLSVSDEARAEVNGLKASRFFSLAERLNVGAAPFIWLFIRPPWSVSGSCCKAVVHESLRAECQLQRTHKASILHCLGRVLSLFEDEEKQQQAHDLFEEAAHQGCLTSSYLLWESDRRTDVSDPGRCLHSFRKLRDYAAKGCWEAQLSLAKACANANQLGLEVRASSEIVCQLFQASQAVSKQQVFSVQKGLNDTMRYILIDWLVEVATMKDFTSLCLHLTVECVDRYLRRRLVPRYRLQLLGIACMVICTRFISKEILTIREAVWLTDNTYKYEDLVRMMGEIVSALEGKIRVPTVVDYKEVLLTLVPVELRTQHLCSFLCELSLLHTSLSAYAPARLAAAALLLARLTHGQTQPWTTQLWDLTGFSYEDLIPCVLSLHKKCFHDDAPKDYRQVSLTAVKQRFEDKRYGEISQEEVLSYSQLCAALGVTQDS
Substitution | normalised enrichment score
LQLRRQLIFSEDS [S8I] | 8.52
LQLRRQLSFSEHS [D12H] | 5.86
LQLRRQLSASEDS [F9A] | 0.267
LQLERQLSFSEDS [R4E] | 0.0487
LQLRRQLSFSMDS [E11M] | 5.55
LQERRQLSFSEDS [L3E] | 2.22
LQLRRQLSFSEQS [D12Q] | 5.4
LQLVRQLSFSEDS [R4V] | 3.03
LQLRRQLSFSESS [D12S] | 5.34
LQLRRQLLFSEDS [S8L] | 8.47
LQLRRQLSFREDS [S10R] | 4.95
LQLRRQASFSEDS [L7A] | -0.153
LQLRRQLSISEDS [F9I] | 0.248
LQLNRQLSFSEDS [R4N] | 5.05
LQLRRQLSFSETS [D12T] | 5.39
LQQRRQLSFSEDS [L3Q] | 2.97
LQLRRQLSFLEDS [S10L] | 5.59
LQLRRQLSSSEDS [F9S] | -0.3

Series 2
Target: RING finger protein unkempt homolog, zinc fingers 1-6, GST-SBP tag (UNK, Homo sapiens, UniProt Q9C0B0, residues 30-357)
Chain of UniProt Q9C0B0 (30-357, looked up): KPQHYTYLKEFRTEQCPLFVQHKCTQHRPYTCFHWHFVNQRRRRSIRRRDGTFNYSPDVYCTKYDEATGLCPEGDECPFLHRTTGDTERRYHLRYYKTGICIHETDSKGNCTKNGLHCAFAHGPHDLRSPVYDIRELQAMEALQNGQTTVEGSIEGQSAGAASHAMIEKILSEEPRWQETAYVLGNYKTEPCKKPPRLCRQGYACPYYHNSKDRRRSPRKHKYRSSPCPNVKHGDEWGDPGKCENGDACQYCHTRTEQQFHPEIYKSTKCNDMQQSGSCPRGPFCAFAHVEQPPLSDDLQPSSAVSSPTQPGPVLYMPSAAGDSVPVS
Method: RNA Bind-n-Seq
Molecule type: RNA
Sample: in vitro
Concentration: not given
Notes: RNA with constant flanks, human and mouse sites, ends assumed
Reference: input RNA pool
Reading: higher = stronger binding
Sequence | bound/input enrichment [ratio]
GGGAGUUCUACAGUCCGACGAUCGUGUUGAGUUGGCAUUGUACAGAAAUUAACAGCCAUAUUGGUCUAGAAAUGUUGAACUUAAUUUUUUUUUCCAUUUGUACAGGGGUAACGCACUGUAUUAAAUAUGUAAGGUCUUAUCUACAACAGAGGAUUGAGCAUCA | 0.591
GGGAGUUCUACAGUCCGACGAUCCAUAUUACAAAAGAUGCUGCAUCUAAUGAAAUUCCAACAUUGACCAAAAAGGAGACAAUUUCUUUGCAAAUGGAAGAGUUUAAUACUGCAAUUUAUUCCAAUGAUGACUUACUUUCUUCUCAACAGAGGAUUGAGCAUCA | 0.115
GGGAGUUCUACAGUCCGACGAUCGAUUGAUCUCUGGGCUGGUGAACAUAAUCUCUGUCCCAGUCAGAAAAGGAGAGAGGAAAUUAGCAGAGCGAUUGGUGGAGAAUGAUAUCUGUCAAAAGAAACACUUGGAGAGCACUGAGUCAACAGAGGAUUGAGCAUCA | 0.538
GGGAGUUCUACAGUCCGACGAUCGGGUCCCGCAGCUGGGCAGGCGGGCGGCCUGAGGGCGCGGAGCCAUGAAGCUGUACAGCCUCAGCGUCCUCUACAAAGGCGAGGCCAAGGUGGUGCUGCUCAAAGCCGCAUACGAUGUGUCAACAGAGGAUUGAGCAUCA | 0.165
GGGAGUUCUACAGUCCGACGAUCUUGUUAAAAUGCUAUUUCCUUUAUUACCUUGGAAACUGACUCAGCCUCAUGUUGCUCCUAAUUAGUGUUUAAGGCUCCCAUGAGUUGCAGAUAAAAUGAUUUAUUUUAACAAGUAGAAGGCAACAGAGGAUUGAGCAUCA | 6.57
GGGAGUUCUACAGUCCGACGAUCCUUUAAGUCUCUGAGAGGAGGCUGAAGAGUGUUGGGGCUCCUGGGACAUACAUGUAGAGUUCCUAGCAAAGUGGGCGCCUUUCUCGUCCACAGCAUUUAAAGAGAGGAAGGAGAACCAUCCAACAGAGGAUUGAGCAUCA | 0.512
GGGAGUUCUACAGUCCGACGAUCAAUAUGGAAAUUUAGUACAGGCUAGAGGUGUUUCCAAUUAACGAGUAAAAUGGAUUAUUCAGUAAAAGCAGUUGGCCCUCUGGAAAAUAGUAAAGCCAUGUAUGUGCCUCACUCUUUAUGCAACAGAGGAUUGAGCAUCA | 0.675
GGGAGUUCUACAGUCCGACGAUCUCUACGCCUGUGGAUGAUCGUAUUUCUUUGGAACAACCACCAAAUGGAAGUGACACCCCCAAUCCAGAGAAAUAUCAAGAAUCACCUGGAAUCCAGAUGAAGACAAGACUUAAAGAGGGGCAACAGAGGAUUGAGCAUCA | 0.156
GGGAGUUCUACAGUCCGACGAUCCAUCGCCAACGGAAUCUUAGUGGAAGCACCCUCUAUCCUGUGUCUAAUAUCCCACGGUCUAAUGUAACCCCCUUUGGAAGUCCAGUGACCCCAGAAGUUCAUGUUUUCACAAAUGUUCACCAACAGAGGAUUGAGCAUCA | 0.325
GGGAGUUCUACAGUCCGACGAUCCACAUUAUCAAGGUUGGAAUUUAUCUUUUGGAAGCUGGCCUAGCAAAACUAGACUUCUUGAGUGAUGCAAAUUCAAGAAUGAAAAAGUUCAAUCAGCUCAUGAAGAAAGUAAUGGAAAAGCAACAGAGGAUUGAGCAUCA | 0.272
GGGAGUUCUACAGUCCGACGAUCCAGAGAUGUAUACCUGACCUUUCAGCCCUCAAUGGUACCUGGACGCCAGGAAGUAGGAUGAAGUUUGAAGAUGGAAGUGGGCAGACCAGGACUAUGCUAGAAUUCAGGGAGGCUGCGAACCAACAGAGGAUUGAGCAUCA | 0.49

Series 3
Target: ABI1, truncated, D143A, DHFR fusion (Arabidopsis thaliana)
Method: DHFR PCA, deep sequencing
Sample: yeast
Notes: methotrexate growth selection, single substitutions
With: (+)-ABA 710 µM
Reference: wild-type fitted maximum
Reading: higher = stronger binding
Starting sequence: PYL1, truncated, DHFR fusion (Arabidopsis thaliana); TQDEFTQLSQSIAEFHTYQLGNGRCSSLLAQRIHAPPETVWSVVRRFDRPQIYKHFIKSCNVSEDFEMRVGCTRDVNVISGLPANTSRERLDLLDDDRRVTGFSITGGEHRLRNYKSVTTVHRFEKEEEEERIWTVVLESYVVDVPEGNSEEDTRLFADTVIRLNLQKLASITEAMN
Substitution | relative binding score
D144P | 82.2%
K58S | 99.4%
N114E | 84.4%
G21L | 95.6%
R111F | 69.6%
E151A | 103%
Q7C | 105%
F56L | 102%
I105V | 105%
D92I | 85.6%
G102W | 21.1%
F5L | 111%
R163H | 91.7%
F66N | 87.6%
L93Y | 113%
V44R | 67%
T1Q | 104%
Q19E | 105%
D3Q | 96.4%
A13N | 90.5%

Series 4
Target: BATF2, bZIP domain (human)
Method: DHFR protein complementation
Sample: yeast
Notes: single substitutions, most at no-binding floor
Reference: wild-type JUN-FOS pair
Reading: higher = stronger binding
Starting sequence: JUN, bZIP domain (human); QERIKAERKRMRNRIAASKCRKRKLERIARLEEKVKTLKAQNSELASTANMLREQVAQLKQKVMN; partner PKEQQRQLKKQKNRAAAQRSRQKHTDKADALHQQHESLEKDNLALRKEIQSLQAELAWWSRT
Substitution | binding fitness [natural log]
N42K | -0.594
Q55K | -0.12
A46V | -0.305
E32I | -0.717
A46F | -0.631
A46R | -0.14
L31S | -1.04
A46I | -0.31
T37Y | -0.224
K39C | -0.789
T48G | -1.19
L45T | -1.47
R53G | -1.26
E33D | -0.42
T37M | 0.163
E33N | -0.541
E32V | -0.512
R30E | -0.0187

Series 5
Target: TAR DNA-binding protein 43, full length, His tag (TARDBP, Homo sapiens, UniProt Q13148, residues 1-414)
Method: RNA Bind-n-Seq
Molecule type: RNA
Sample: in vitro
Concentration: 20 nM
Notes: 6-mer, flanks averaged, single round
With: 150 mM KCl
Reference: input library
Reading: higher = stronger binding
Sequence | 6-mer enrichment (R)
AACAGG | 1.12
AAUCCG | 0.619
CUUGCA | 0.648
GCAGCU | 0.869
GUGCAU | 0.947
CGACAU | 0.623
AUGAGG | 1.86
AGCGGA | 1.54
UCACAC | 0.598
UCAAGG | 1.03
UCUUCC | 0.539
CCGCCU | 0.633
UGAAUC | 0.629
GUAACA | 0.685
UACCAG | 0.7
UCUCUU | 0.58
UAUACA | 0.592
UUUGUA | 0.736
UGUGAG | 1.72
UUAAUC | 0.562
GUAUUG | 0.837
ACAACG | 0.757
CCAGUC | 0.633
AGGAUG | 1.48
CACUGU | 0.648

Single results of other studies
Method: cross-linking MS
Sample: cell fractions
Substance | partner | setting | cross-linked residues
CANX (Homo sapiens, UniProt P27824) | FSIP2 (Homo sapiens, UniProt Q5CZC0) | with: DSSO | K170 to K690
SRP14 (Homo sapiens, UniProt P37108) | SRP9 (Homo sapiens, UniProt P49458) | with: DMTMM | K95 to D54
MTCL2 (Homo sapiens, UniProt O94964) | SPTAN1 (Homo sapiens, UniProt Q13813) | with: DHSO | E342 to E618
RFC1 (Homo sapiens, UniProt P35251) | RFC3 (Homo sapiens, UniProt P40938) | with: DSSO | S1083 to K66

A few entries again (single results of other studies):
Substance | partner | setting | cross-linked residues
CANX (Homo sapiens, UniProt P27824) | FSIP2 (Homo sapiens, UniProt Q5CZC0) | with: DSSO | K170 to K690
SRP14 (Homo sapiens, UniProt P37108) | SRP9 (Homo sapiens, UniProt P49458) | with: DMTMM | K95 to D54
MTCL2 (Homo sapiens, UniProt O94964) | SPTAN1 (Homo sapiens, UniProt Q13813) | with: DHSO | E342 to E618
RFC1 (Homo sapiens, UniProt P35251) | RFC3 (Homo sapiens, UniProt P40938) | with: DSSO | S1083 to K66
